Experimental data collected from several papers.
Every numbered part comes from another study and shows a few of its results, in no order.

Block 1 — method: RNA Bind-n-Seq; molecule type: RNA; medium: in vitro; concentration: 200 nM; notes: whole 134-nt RNA, ends assumed; together with: 150 mM KCl; reference: input library; reading: higher = stronger binding
Target: Fragile X messenger ribonucleoprotein 1, C-terminal low-complexity region (Fmr1, Mus musculus, UniProt P35922)
Shared flanks, not repeated: GGGAGUUCUACAGUCCGACGAUC … UGGAAUUCUCGGGUGUCAAGG
Oligonucleotide | log2 enrichment
GUCCUGUGCUACACAUCGUAUGUACCGAAUCAAAUUUUUAAACCCCCAAACCCCCAAAAAAGUAUUAUGUUACGCCGUUCGGAUCUGCAC | -0.398
CUCAAGUCCUGUGCUACACAUCGUAUGUACCGAAUCGGUUUUUUUGGUGGAGGAAAGUAUUAUGUUACGCCGUUCGGAUCUGCACUUCCA | -0.0507
AAUGUGUCCUCCCUGUCCAAAUUGGGAAUGACUUAAUGUCAAUUUGUUUGUUGGUUGUUUUAAUAAUACUUCCUUAUGUAGCCAUUAAGA | -0.194
UGUAACCUGGGGAUUCUCUCAACUCUCUUGUCCCACACAGACUUCUAUGAGGAAAUCCAGGAGUUUGUGAAAGAUGUCUUUUCACCUAUA | 0.174
UGGGAGGUGGAUUUUGUUUAUUUUUUUAGCUCAUUUCCAGGGGUGGGAAUUUUUUUUUAAUAUGUGUCAUGAAUAAAGUUGGUUUUGAAA | 0.251
CUCAAGUCCUGUGCUACACAUCGUAUGUACCGAAUCGGCCGGGCCGGGCCGGGAAAGUAUUAUGUUACGCCGUUCGGAUCUGCACUUCCA | -0.382
UUGGCGCAUGCGCCUAAAGCUGACGGGUUUGAAAUGGCUUCGAUGUUAGCCGGGACCCGACUCAGGUGAAGGUCUGGUCCCCGUAGUUGG | -0.871

Block 2 — method: protein binding microarray; molecule type: double-stranded DNA, one strand shown; medium: in vitro; concentration: not given; reference: not given; reading: higher = stronger binding
Target: Histone acetyltransferase KAT6A, winged helix 2, GST fusion (KAT6A, Homo sapiens, UniProt Q92794, residues 85-181)
Notes: 8-mer, flanks averaged, mean of 2 arrays, mostly near background
Residues (chain): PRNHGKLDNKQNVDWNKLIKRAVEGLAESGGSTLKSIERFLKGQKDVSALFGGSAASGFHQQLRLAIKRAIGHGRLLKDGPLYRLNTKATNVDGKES
Oligonucleotide | E-score
ACCGCCTA | 0.127
AGAGCGAC | -0.0345
TACGAGAA | -0.0131
GGTGACAC | 0.0428
ACGAGGGA | -0.0797

Block 3 — method: RNA Bind-n-Seq; molecule type: RNA; medium: in vitro; concentration: 365 nM; reference: no-protein control; reading: higher = stronger binding
Target: RNA binding protein fox-1 homolog 2, RRM domain, GST-SBP tag (RBFOX2, Homo sapiens, UniProt O43251-10, residues 100-194)
Notes: natural RNA segment, single round, ends assumed
Construct (chain): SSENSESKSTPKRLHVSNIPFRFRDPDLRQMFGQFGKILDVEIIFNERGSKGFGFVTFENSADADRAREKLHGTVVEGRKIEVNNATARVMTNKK
Oligonucleotide | RBNS enrichment (R)
GGGAGUUCUACAGUCCGACGAUCGAAAACAAACUGGAAACUUGUUUCUUUUUUUGUAUAAAUGAGAGAUUGCAAAUGUAGUGUAUCACUGAGUCAUUUGCAGUGUUUUCUGCCACAGACCUUUGGGCUGCCUUUGGAAUUCUCGGGUGCCAA | 0.234
GGGAGUUCUACAGUCCGACGAUCUUGAAACCUCUCUGAUGAAAGUGAAAAAUGUGGGUAGCUUAUACUUUCAAACUAAUGCCAGUGACUAGAGAGAGGUUUCAUUCAUGAUGUGUAUUUCCAAUUUGGUCUUCUGGAAUUCUCGGGUGCCAA | 0.825
GGGAGUUCUACAGUCCGACGAUCAACUGGCCACUCAAUACAGUCUCUCCCUCAAUAGCACAGAAGGUCCUUGAGCUCCCAGGCCGCAGCAACACAUGCAGUGGGACGCAGGAAGCGUGGGCGAGCAUUCUCCUUGGAAUUCUCGGGUGCCAA | 0.655
GGGAGUUCUACAGUCCGACGAUCCCAAUCUUUCAAAAUCUUGUCUUAGGGCUUGUGAGGAAUCAGAACUAACCCAGGACUCAGUCCUGCUUCUUUUGCCUCGAGUGAUUUUCCUCUGUUUUUCACUAAAUAAGUGGAAUUCUCGGGUGCCAA | 0.24

Mixed results
Molecule | target | assay | system | conditions | scale | quantity | result
PhoQ, residues 284 288 289 292 302 303 AGGCYF | PhoP, residues 12 14 15 18 19 NHFIF (Escherichia coli, UniProt P23836) | Sort-seq, measured: YFP reporter | E. coli | PhoQ-PhoP variant library, together with: 10 µM Mg2+ | reference: high Mg2+ state, higher = stronger signaling | fold induction | 19.8

A few entries again (block 2):
Oligonucleotide | E-score
TACGAGAA | -0.0131
ACCGCCTA | 0.127
